Results gathered from unrelated publications.
Every numbered part comes from another study and shows a few of its results, in no order. Changes are numbered by the printed parent chain.

Block 1 — method: aptamer microarray, sandwich; molecule type: DNA with 2'F-ANA; matrix: in vitro; concentration: 200 nM; together with: Cy3 exosite-II aptamer, 400 nM; direction: higher = stronger binding; measurement: mean fluorescence intensity; oligonucleotide: GGTTGGTGTGGTTGG
Target: Prothrombin, mature alpha-thrombin (F2, Homo sapiens, UniProt P00734)
Setting: whole 15-mer aptamer, many near background
2'F-ANA at 3 4 5 7 9 10 13 14 15: 53.8 a.u.
2'F-ANA at 4 5 8 9 13 14: 45.4 a.u.
2'F-ANA at 1 2 4 6 7 8 10 12 13: 55.8 a.u.
2'F-ANA at 1 2 5 7 9 10 11 12 13 14: 48.9 a.u.
2'F-ANA at 6 7 8 9 14: 201 a.u.
2'F-ANA at 3 9 10 15: 613 a.u.
2'F-ANA at 2 5 8 9 10: 45.7 a.u.
2'F-ANA at 2 4 5 9 10 11 12 15: 53.4 a.u.
2'F-ANA at 2 3 6 7 10 13 14 15: 244 a.u.
2'F-ANA at 2 7 8 12: 803 a.u.
2'F-ANA at 1 2 3 4 6 7 8 9 10 11 12 13: 71.4 a.u.
2'F-ANA at 4 6 7 12 13 14: 107 a.u.
2'F-ANA at 3 5 6 8 9 11 12 14 15: 314 a.u.
2'F-ANA at 1 2 3 5 7 15: 63.1 a.u.
2'F-ANA at 1 3 4 6 9: 173 a.u.
2'F-ANA at 1 2 3 5 6 8 10 12 13: 49.6 a.u.
2'F-ANA at 1 3 8 11 12: 522 a.u.
2'F-ANA at 1 2 4 8 10 13: 102 a.u.
2'F-ANA at 1 2 6 7 8 11 12: 307 a.u.
2'F-ANA at 1 2 3 8 9 11 12 13 14 15: 92.9 a.u.

Block 2 — method: protein-binding microarray; molecule type: double-stranded DNA, one strand shown; matrix: in vitro; concentration: 250 nM; setting: 60-bp whole probe; together with: salmon DNA 0.4 mg/ml; relative to: random background probes; direction: higher = stronger binding; measurement: log fluorescence; all sequences stand within: GCCTAGCAC … GTCTTGATTCGCTTGACGCTGCTG
Target: Interferon regulatory factor 7, full length, phosphomimetic (IRF7, Homo sapiens, UniProt Q92985, residues 1-503, S101K/S471D/S472D/S475D/S476D/S477D/S483D/S484D/S487D)
Sequence of UniProt Q92985 (whole entry, unmodified, looked up): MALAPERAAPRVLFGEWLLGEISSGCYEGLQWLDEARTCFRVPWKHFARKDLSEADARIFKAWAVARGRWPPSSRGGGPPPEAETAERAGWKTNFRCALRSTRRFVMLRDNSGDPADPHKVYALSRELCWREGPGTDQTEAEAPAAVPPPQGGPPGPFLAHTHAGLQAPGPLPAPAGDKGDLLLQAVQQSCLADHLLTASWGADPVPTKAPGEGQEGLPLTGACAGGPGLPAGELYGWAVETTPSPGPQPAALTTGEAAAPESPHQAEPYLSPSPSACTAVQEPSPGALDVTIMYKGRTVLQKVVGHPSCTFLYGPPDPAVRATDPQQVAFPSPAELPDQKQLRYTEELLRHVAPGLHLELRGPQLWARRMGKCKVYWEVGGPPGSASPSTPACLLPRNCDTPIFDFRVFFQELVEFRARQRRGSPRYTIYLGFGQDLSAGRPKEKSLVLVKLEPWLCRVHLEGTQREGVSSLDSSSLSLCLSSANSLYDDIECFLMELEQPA
GACGATTTCGGGTCTGGAGACGTGCTA: 0.443 z-score
TCAGGTAGCCTTATCCCACTGTGCTAG: -0.53 z-score
GACGGTTTCCGTATCCTGACGTGCTAG: 3.85 z-score
AGCAGTTGGACCTCTCAGCCAGTGCTA: -1.09 z-score
GACGGTTTCTACTTTCGGGACGTGCTA: 5.38 z-score
TTAGGTCTCGGACTGGTTTAGTGCTAG: 0.62 z-score
GACGATACCAGTTTCGAGACGTGCTAG: 4.35 z-score
GGCGATCTCAGACTGGAGACGTGCTAG: -0.98 z-score
GACGGTTTCTACACTGGGGACGTGCTA: 1.08 z-score
TTAGGGCTGCTTTTCCTTTAGTGCTAG: 0.117 z-score
TTAGGTATCGGGATTGGGTTAGTGCTA: 0.632 z-score
GAAGGTATCGGTTTCGGGACGTGCTAG: 7.18 z-score
GACCGACTGGGGACTGGGGACGTGCTA: 0.025 z-score
TTAGGTATCGGTATCGGTTGGTGCTAG: 2.55 z-score
TTTCCCATGAGTCTCAAAATGTGCTAG: 3.44 z-score
GACGAAGTGGGGTATCGAGACGTGCTA: -0.721 z-score
GACGGTATCCGACTGCTGACGTGCTAG: -0.451 z-score
TAAGGTCTCCTTCTCCTTTAGTGCTAG: 0.445 z-score
GAAATTCTCATTTCCAATTAGTGCTAG: 1.58 z-score

Block 3 — target: TEF, bZIP domain (human); method: DHFR protein complementation; matrix: yeast; relative to: wild-type JUN-FOS pair; direction: higher = stronger binding; measurement: binding fitness
Setting: single substitutions, most at no-binding floor
Starting sequence: JUN, bZIP domain (human); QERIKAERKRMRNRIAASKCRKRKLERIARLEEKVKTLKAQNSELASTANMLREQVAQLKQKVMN; partner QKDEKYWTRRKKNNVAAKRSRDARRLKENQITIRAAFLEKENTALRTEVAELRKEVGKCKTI
L52P: -1.48 natural log
E44M: -1.5 natural log
R53N: -1.51 natural log
E32F: -1.34 natural log
V35W: -1.53 natural log
S47Q: -1.55 natural log
E32G: -1.52 natural log
A49R: -1.24 natural log
N42D: -1.57 natural log
E54T: -1.26 natural log
S43V: -1.4 natural log
A40K: -1.45 natural log

Block 4 — target: CCND3, cyclin fold, Cln2 fusion (human); method: yeast growth competition, sequencing; matrix: yeast; setting: weak parent motif; relative to: not given; direction: higher = stronger binding; measurement: normalised enrichment score
Starting sequence: DBF4B docking peptide (human); LGYLYLLLTQSLW; partner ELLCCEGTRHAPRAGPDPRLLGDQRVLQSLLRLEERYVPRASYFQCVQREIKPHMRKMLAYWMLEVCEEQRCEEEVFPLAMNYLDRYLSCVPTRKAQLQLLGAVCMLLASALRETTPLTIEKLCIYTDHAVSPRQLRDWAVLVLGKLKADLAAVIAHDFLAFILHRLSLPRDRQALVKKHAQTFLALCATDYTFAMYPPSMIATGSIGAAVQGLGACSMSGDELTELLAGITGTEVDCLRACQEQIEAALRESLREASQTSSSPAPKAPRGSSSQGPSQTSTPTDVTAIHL
L12A: -0.207
L8A: 0.275
G2A: -0.299
W13A: -0.377
S11A: 0.0868
Y5A: -0.0338

Block 5 — method: DHFR PCA, deep sequencing; matrix: yeast; together with: (+)-ABA 0 µM; relative to: wild-type fitted maximum; direction: higher = stronger binding; measurement: relative binding score
Target: ABI1, truncated, D143A, DHFR fusion (Arabidopsis thaliana)
Setting: methotrexate growth selection, single substitutions
Starting sequence: PYL1, truncated, DHFR fusion (Arabidopsis thaliana); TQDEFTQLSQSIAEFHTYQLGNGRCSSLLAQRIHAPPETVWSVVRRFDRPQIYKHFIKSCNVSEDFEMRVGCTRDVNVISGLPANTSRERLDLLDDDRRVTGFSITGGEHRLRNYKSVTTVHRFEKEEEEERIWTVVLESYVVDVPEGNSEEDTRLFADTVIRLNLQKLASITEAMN
G23A: 3.71%
E152F: -9.08%
F66L: -1.5%
D97A: 30.8%
P36I: -6.04%
D65R: 7.33%
H16R: -0.22%
R98C: -1.57%
E4S: 6.37%
L166N: -6.05%
P50A: -0.395%
E38R: 1.15%
G71P: 1.28%
V40G: 1.5%
G81L: 6.16%
E151W: 3.66%
S63Y: 1.16%
V43L: 16.4%

A few entries again (block 4):
L8A: 0.275
G2A: -0.299
W13A: -0.377
S11A: 0.0868
Y5A: -0.0338
